Measurements from different studies.
“And” joins repeats or separate records; there may be more than shown. ± gives the spread as reported.
GLP1R: Glucagon-like peptide 1 receptor (GLP1R, Homo sapiens, UniProt P43220)

`Nc1nc2c(ncn2[C@@H]2O[C@H](COP(=O)(O)O)[C@@H](O)[C@H]2O)c(=O)[nH]1` gave a reaction rate of 0.288 s⁻¹ and 0.537 s⁻¹ and -0.0584 s⁻¹ (GUK1 (Homo sapiens, UniProt Q16774, R41A); enzyme activity, NADH-coupled; 7.812 µM).
`CN1CCN(c2ccc3nc(-c4c(N)c5c(F)cccc5[nH]c4=O)[nH]c3c2)CC1`: “luminescence signal reduction” 1.94% (NanoBiT HiBiT/LgBiT luciferase; inhibitor, HiBiT luminescence counterscreen; conditioned medium only; 1.66 µM, 24 h; reference: vehicle).
`CCCC(CCC)c1nc2c(Nc3ccc(C#CCCCCCCCCN)cc3)nc3ccccc3c2[nH]1` — result for off-target affinity: “inactive” (HTR3A (Homo sapiens, UniProt P46098); PDSP screening).
For `CC[C@@H]1[C@H](F)C(=O)N[C@@H]1COc1nccc2cc(C(N)=O)c(OC)cc12`, the inhibition was -20.6% (MAP2K6 (Homo sapiens, UniProt P52564); ATP-site probe binding, ActivX profiling; THP-1 cell lysate; 0.2 mM, Lys1 site).
With `c1ccc(C(NCc2cccnc2)(c2ccccc2)c2ccccc2)cc1` the Hill coefficient was 0.7 (KCNQ1 (Homo sapiens, UniProt P51787); ion current, inhibitor, whole-cell patch clamp; tsA201; peak current, no correction).
For `CN(C)C(=O)C(CCN1CCC(O)(c2ccc(Cl)cc2)CC1)(c1ccccc1)c1ccccc1`, the normalized Gmax was 0.635 ± 0.056 (Calcium-activated potassium channel subunit alpha-1, with LRRC26 γ1 subunit (KCNMA1, Homo sapiens, UniProt Q12791); BK current, inhibitor, inside-out patch clamp; excised membrane patch; 1 µM, γ1 coexpressed, individual fits, added: nominally 0 Ca2+ cytosolic; reference: without loperamide).
For `CC(=C/C(=O)O)/C=C/C=C(\C)C1C=C2C(C)(C)CCCC2(C)O1` (stereo not drawn), “Pearson correlation coefficient” read 0.42 (Rhodopsin (RHO, Homo sapiens, UniProt P08100, E181K); ER retention, immunostaining co-localization, item: opsin with calnexin; COS-7 transfected E181K; 50.00 µM).
Under “onset time of degradation”, `Cc1ncsc1-c1ccc(CNC(=O)[C@@H]2C[C@@H](O)CN2C(=O)[C@@H](NC(=O)CCCCCCCCCCCC(=O)NCCCCC#Cc2cccc(-c3nn(-c4nc(C(=O)O)cs4)c(CC4CC4)c3Cc3ccc(S(N)(=O)=O)cc3)c2)C(C)(C)C)cc1` is recorded as 24 h (LDHB (Homo sapiens, UniProt P07195); degrader, western blot; PANC-1; 1 µM).
Under “fold potency loss”, `CC[C@H](C)[C@H](NC(=O)[C@H](Cc1ccccc1)NC(=O)[C@H](CCC(=O)O)NC(=O)[C@H](CCCNC(=N)N)NC(=O)[C@H](C)NC(=O)[C@H](C)NC(=O)[C@H](CCC(N)=O)NC(=O)[C@H](CCCCNc1c(NCCCCCN(O)C(=O)CCC(=O)NCCCCCN(O)C(=O)CCC(=O)NCCCCCN(O)C(C)=O)c(=O)c1=O)NC(=O)[C@H](CCC(=O)O)NC(=O)[C@H](CC(C)C)NC(=O)[C@H](Cc1ccc(O)cc1)NC(=O)[C@H](CO)NC(=O)[C@H](CO)NC(=O)[C@@H](NC(=O)[C@H](CC(=O)O)NC(=O)[C@H](CO)NC(=O)[C@@H](NC(=O)[C@H](Cc1ccccc1)NC(=O)[C@@H](NC(=O)CNC(=O)[C@H](CCC(=O)O)NC(=O)[C@H](C)NC(=O)CCc1cnc[nH]1)[C@@H](C)O)[C@@H](C)O)C(C)C)C(=O)N[C@@H](C)C(=O)N[C@@H](Cc1c[nH]c2ccccc12)C(=O)N[C@@H](CC(C)C)C(=O)N[C@H](C(=O)N[C@@H](CCCNC(=N)N)C(=O)NCC(=O)N[C@@H](CCCNC(=N)N)C(=O)N[C@@H](CCCCNC(=O)COCCOCCNC(=O)COCCOCCNC(=O)CC[C@H](NC(=O)CCCCCCCCCCCCCCCCC(=O)O)C(=O)O)C(=O)NCC(=O)NCC(=O)N[C@@H](CO)C(=O)N[C@@H](CCCCNc1c(NCCCCCN(O)C(=O)CCC(=O)NCCCCCN(O)C(=O)CCC(=O)NCCCCCN(O)C(C)=O)c(=O)c1=O)C(=O)O)C(C)C` is recorded as 0.8 (GLP1R; agonist, CRE luciferase reporter; BHK cells; Zr-loaded DFO conjugate, added: 1% HSA; reference: parent peptide).
For `CC(C)C[C@@H]1NC(=O)CNC(=O)[C@H](CC(C)C)NC(=O)[C@@H]2CCCN2C(=O)[C@H](CC(=O)O)NC(=O)[C@H](Cc2ccc(O)cc2)NC(=O)CNC(=O)[C@@H](Cc2ccc(O)cc2)NC(=O)CSC[C@@H](C(N)=O)NC(=O)[C@H](C)NC(=O)[C@H](Cc2ccccc2)NC(=O)[C@H](Cc2ccc(O)cc2)NC(=O)[C@H](CCCCN)NC1=O`, the ΔG was -11.1 ± 0.21 kcal/mol (Vacuolar protein sorting-associated protein 29 (VPS29, Homo sapiens, UniProt Q9UBQ0); binding, ITC; 25 °C, protein alone).
Under “fold potency loss”, `CC[C@H](C)[C@H](NC(=O)[C@H](Cc1ccccc1)NC(=O)[C@H](CCC(=O)O)NC(=O)[C@H](CCCNC(=N)N)NC(=O)[C@H](C)NC(=O)[C@H](C)NC(=O)[C@H](CCC(N)=O)NC(=O)[C@H](CCC(=O)O)NC(=O)[C@H](CCC(=O)O)NC(=O)[C@H](CC(C)C)NC(=O)[C@H](Cc1ccc(O)cc1)NC(=O)[C@H](CO)NC(=O)[C@H](CO)NC(=O)[C@@H](NC(=O)[C@H](CC(=O)O)NC(=O)[C@H](CO)NC(=O)[C@@H](NC(=O)[C@H](Cc1ccccc1)NC(=O)[C@@H](NC(=O)CNC(=O)[C@H](CCC(=O)O)NC(=O)[C@H](C)NC(=O)CCc1cnc[nH]1)[C@@H](C)O)[C@@H](C)O)C(C)C)C(=O)N[C@@H](C)C(=O)N[C@@H](Cc1c[nH]c2ccccc12)C(=O)N[C@@H](CC(C)C)C(=O)N[C@H](C(=O)N[C@@H](CCCCNC(=O)COCCOCCNC(=O)COCCOCCNC(=O)CC[C@H](NC(=O)CCCCCCCCCCCCCCCCC(=O)O)C(=O)O)C(=O)NCC(=O)N[C@@H](CCCNC(=N)N)C(=O)N[C@@H](CCCCNc1c(NCCCCCN(O)C(=O)CCC(=O)NCCCCCN(O)C(=O)CCC(=O)NCCCCCN(O)C(C)=O)c(=O)c1=O)C(=O)NCC(=O)NCC(=O)N[C@@H](CO)C(=O)N[C@@H](CCCCNc1c(NCCCCCN(O)C(=O)CCC(=O)NCCCCCN(O)C(=O)CCC(=O)NCCCCCN(O)C(C)=O)c(=O)c1=O)C(=O)NCC(=O)NCC(=O)N[C@@H](CO)C(=O)N[C@@H](CCCCNc1c(NCCCCCN(O)C(=O)CCC(=O)NCCCCCN(O)C(=O)CCC(=O)NCCCCCN(O)C(C)=O)c(=O)c1=O)C(=O)O)C(C)C` is recorded as 3.7 (GLP1R; agonist, CRE luciferase reporter; BHK cells; metal-free DFO conjugate, added: 1% HSA; reference: parent peptide).
`O=C(COP(=O)(O)O)[C@@H](O)[C@H](O)[C@H](O)COP(=O)(O)O` — result for “thermal stability ratio”: 0.504 (Cytoplasmic dynein 1 light intermediate chain 2 (Homo sapiens, UniProt O43237); thermal proteome profiling, item: DYNC1LI2; HepG2 cell lysate; concentration not given, 57 over 37 °C, mean; reference: compound over control).
For `NCC[C@H](O)C(=O)N[C@@H]1C[C@H](N)[C@@H](O[C@H]2O[C@H](CN)[C@@H](O)[C@H](O)[C@H]2O)[C@H](O)[C@H]1O[C@H]1O[C@H](CO)[C@@H](O)[C@H](N)[C@H]1O`, the ΔG° was -3.65 kcal/mol (Albumin (ALB, Bos taurus, UniProt P02769); binding, tryptophan fluorescence quenching; pH 7.4, 298 K).
With `C[C@@H]1CCO[C@H]2Cn3cc(C(=O)NCc4ccc(F)cc4F)c(=O)c(O)c3C(=O)N12` the inhibition was 0.849% (SLC22A3 (Homo sapiens, UniProt O75751); transport; MDCK-II, transfected; 10 µM, added: MPP+ 2 µM).
`CCC1(O)CCCN(C(=O)c2ccc(-c3ccc(F)c(NC(=O)CCl)c3)cc2)C1` (stereo not drawn) has a protein adduct of 30% (DNA dC->dU-editing enzyme APOBEC-3A (Homo sapiens, UniProt P31941); covalent modifier, intact protein mass spectrometry, item: adduct +26309 Da; 25 µM, 1 h, 1-fold molar excess).
`NC(=O)CCNC(=O)c1ccc(C2CCCCC2)cc1` has a hepatic clearance of 77 mL/min/kg (hepatocyte stability; cryopreserved mouse hepatocytes; 1 µM).
With `OC[C@H]1O[C@H](OC[C@H]2OC(O)(CO)[C@@H](O)[C@@H]2O)[C@H](O)[C@@H](O)[C@@H]1O` (stereo partly drawn) the ΔTm was 3.66 °C (uncharacterized protein (Pelagibacter ubique, UniProt Q4FMK2); differential scanning fluorimetry; Candidatus Pelagibacter ubique; concentration not given; higher = stronger binding).
`CC1(C)CN(CCCCC(=O)N[C@H](Cc2ccccc2)C(=O)N[C@H](Cc2ccccc2)C(=O)N[C@H](CCCCNC(=O)CCCCCCC(=O)NCCCC[C@H](NC(=O)N[C@@H](CCC(=O)O)C(=O)O)C(=O)O)C(=O)O)CC[N]2CC(C)(C)[S][Tc]2(=[O])[S]1` (stereo partly drawn) [technetium-99m labelled] has a Bmax of 4 ± 0.4 pmol/mg (FOLH1 (Homo sapiens, UniProt Q04609); radioligand, saturation binding; LNCaP; 1 h, 37 °C, added: [99mTc]TcO-6).
With `CN(C)CCC(=O)Nc1ccc(C2CCCCC2)cc1` the hepatic clearance was 49 mL/min/kg (liver microsome stability; rat liver microsomes; 1 µM).
For `CCCCC[S+]([O-])c1n[nH]c(N)n1` (stereo not drawn), the fold enrichment was 0.874 (Transcription intermediary factor 1-beta, PHD-bromodomain (TRIM28, Homo sapiens, UniProt Q13263); binding, affinity selection mass spectrometry; reference: other proteins in batch).
For `O=S(=O)(O)O`, the reaction velocity was 0.0365 µM/s and 0.0293 µM/s and 0.0411 µM/s (GUK1 (Homo sapiens, UniProt Q16774); enzyme activity, NADH-coupled; 10 mM, added: ATP 125 µM).
